Experimental data gathered from unrelated publications.
Lines come from different studies, so protocols differ. Values joined by “and” are separate records of one study, mostly repeats; a detail may differ. Numbers after ± are the reported error.
CASP7: Caspase-7 (CASP7, Homo sapiens, UniProt P55210)
UniProt P55210, sequence (whole entry, looked up): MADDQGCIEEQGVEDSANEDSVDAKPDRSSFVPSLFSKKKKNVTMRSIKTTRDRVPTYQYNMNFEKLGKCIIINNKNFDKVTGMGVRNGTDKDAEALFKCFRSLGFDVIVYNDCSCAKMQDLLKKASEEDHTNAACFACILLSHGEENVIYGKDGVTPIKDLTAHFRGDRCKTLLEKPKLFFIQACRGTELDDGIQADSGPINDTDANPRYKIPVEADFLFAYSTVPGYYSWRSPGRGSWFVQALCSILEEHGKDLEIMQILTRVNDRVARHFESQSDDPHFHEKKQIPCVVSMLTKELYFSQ
T1: riboswitch RNA yjdF aptamer, L3 replaced by GAAA (Bacillus subtilis); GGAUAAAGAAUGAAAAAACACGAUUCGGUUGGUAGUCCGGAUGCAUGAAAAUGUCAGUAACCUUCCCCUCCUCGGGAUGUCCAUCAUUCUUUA
UniProt Q9NQR4, sequence (whole entry, looked up): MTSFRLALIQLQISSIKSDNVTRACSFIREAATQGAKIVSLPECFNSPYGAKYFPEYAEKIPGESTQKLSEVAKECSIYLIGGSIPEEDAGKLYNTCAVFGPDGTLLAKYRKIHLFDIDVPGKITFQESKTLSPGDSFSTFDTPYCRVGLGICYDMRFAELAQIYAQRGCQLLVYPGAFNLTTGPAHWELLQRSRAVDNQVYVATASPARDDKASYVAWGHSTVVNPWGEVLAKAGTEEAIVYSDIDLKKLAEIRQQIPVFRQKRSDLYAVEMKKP
UniProt P00519, sequence (whole entry, looked up): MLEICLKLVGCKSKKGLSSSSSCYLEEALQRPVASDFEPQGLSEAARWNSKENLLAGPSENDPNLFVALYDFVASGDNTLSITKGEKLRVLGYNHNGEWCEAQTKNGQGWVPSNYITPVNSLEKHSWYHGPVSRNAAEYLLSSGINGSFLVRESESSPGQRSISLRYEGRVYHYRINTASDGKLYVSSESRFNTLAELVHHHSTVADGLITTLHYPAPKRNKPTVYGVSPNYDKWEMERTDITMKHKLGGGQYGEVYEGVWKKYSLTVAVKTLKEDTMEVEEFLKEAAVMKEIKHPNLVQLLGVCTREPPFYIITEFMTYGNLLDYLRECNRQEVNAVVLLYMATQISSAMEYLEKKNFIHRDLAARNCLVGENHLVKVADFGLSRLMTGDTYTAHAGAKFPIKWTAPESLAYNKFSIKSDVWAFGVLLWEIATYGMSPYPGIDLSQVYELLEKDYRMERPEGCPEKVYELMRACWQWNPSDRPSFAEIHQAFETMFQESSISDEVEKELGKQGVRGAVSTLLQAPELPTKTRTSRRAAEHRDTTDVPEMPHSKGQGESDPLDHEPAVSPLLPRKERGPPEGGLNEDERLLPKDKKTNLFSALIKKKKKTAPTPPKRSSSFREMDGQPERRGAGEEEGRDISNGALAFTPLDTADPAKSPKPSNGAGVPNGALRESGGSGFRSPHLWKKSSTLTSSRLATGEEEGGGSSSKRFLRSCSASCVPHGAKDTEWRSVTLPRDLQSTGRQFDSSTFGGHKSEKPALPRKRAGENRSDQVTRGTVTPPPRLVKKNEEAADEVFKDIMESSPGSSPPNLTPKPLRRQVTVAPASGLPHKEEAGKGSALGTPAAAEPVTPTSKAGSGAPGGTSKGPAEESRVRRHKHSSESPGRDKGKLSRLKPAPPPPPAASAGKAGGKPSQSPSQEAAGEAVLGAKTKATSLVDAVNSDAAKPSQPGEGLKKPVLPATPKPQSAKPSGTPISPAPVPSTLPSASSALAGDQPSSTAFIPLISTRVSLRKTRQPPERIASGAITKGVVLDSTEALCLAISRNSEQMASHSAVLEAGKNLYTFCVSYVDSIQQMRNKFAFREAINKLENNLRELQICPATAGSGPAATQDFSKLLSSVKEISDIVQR
UniProt P08191, sequence (whole entry, unmodified, looked up): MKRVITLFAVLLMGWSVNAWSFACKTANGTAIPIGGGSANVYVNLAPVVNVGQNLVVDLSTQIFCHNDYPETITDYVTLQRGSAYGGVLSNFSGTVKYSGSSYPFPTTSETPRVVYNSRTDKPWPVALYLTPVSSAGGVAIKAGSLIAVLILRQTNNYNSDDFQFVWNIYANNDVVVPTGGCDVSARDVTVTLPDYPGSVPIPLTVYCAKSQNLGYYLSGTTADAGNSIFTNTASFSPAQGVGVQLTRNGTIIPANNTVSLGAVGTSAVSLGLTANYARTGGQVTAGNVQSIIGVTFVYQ
UniProt P19491, sequence (whole entry, looked up): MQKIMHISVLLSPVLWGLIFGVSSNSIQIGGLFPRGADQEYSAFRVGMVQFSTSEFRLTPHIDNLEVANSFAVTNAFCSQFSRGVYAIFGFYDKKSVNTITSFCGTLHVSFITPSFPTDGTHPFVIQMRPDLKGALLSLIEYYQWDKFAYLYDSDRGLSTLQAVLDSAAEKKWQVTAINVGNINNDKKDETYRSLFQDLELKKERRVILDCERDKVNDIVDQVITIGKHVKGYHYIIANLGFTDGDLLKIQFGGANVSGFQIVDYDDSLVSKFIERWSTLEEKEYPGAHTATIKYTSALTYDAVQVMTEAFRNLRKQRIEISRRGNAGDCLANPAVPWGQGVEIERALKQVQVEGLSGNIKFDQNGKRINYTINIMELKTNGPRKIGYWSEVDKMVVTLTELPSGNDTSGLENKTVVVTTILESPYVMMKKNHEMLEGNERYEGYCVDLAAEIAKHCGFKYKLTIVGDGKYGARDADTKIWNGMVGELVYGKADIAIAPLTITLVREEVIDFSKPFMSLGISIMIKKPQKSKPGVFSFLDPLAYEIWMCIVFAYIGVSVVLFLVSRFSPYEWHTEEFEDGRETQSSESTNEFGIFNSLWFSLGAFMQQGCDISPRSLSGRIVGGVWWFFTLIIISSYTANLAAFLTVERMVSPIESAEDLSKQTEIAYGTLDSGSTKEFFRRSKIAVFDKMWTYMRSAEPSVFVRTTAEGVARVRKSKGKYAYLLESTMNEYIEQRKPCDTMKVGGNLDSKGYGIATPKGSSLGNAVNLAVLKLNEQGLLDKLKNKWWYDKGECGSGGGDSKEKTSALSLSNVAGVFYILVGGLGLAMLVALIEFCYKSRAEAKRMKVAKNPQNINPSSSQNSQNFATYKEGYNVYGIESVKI
UniProt Q13148, sequence (whole entry, looked up): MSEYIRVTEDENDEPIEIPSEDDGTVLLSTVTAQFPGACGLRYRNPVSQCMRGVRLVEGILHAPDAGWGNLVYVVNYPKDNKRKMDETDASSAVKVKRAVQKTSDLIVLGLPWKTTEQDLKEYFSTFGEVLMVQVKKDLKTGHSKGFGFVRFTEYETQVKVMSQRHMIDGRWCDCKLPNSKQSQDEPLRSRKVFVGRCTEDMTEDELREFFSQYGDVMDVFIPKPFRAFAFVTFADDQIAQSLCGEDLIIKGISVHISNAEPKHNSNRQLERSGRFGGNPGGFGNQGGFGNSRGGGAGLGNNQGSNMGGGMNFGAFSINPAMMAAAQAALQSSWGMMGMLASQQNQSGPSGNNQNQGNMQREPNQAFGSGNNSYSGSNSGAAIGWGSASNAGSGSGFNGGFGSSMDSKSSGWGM
UniProt Q9NYW5, sequence (whole entry, looked up): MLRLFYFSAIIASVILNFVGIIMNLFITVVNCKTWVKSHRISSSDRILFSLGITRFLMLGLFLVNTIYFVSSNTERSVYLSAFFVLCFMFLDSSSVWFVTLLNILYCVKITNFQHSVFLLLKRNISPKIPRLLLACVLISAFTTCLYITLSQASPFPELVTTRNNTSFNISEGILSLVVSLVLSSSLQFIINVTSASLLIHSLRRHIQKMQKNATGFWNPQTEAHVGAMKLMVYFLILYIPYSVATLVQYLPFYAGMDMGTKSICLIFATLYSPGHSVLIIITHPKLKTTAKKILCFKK
UniProt Q9HBA0, sequence (whole entry, looked up): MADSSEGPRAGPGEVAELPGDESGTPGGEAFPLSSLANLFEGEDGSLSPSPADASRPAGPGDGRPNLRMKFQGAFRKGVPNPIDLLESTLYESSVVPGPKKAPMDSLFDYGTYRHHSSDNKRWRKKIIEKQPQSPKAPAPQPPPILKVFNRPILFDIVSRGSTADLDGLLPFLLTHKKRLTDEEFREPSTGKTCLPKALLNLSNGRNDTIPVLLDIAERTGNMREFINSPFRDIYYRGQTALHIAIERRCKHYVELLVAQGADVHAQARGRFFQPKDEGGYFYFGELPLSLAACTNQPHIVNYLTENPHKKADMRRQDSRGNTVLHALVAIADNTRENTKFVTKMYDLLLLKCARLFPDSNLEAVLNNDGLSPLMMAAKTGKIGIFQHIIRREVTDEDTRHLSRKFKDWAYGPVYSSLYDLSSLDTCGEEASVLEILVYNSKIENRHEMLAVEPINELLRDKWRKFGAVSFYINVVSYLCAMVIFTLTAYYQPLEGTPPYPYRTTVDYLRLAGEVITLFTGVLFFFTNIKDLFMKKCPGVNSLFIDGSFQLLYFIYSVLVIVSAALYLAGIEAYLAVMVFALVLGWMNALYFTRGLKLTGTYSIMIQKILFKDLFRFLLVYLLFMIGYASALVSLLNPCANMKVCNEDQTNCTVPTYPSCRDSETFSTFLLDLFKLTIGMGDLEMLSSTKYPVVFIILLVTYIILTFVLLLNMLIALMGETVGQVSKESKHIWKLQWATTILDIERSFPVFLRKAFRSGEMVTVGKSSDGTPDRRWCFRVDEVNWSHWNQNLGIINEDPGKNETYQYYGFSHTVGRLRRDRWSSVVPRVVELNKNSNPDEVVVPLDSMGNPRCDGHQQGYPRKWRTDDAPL
UniProt P48643, sequence (whole entry, looked up): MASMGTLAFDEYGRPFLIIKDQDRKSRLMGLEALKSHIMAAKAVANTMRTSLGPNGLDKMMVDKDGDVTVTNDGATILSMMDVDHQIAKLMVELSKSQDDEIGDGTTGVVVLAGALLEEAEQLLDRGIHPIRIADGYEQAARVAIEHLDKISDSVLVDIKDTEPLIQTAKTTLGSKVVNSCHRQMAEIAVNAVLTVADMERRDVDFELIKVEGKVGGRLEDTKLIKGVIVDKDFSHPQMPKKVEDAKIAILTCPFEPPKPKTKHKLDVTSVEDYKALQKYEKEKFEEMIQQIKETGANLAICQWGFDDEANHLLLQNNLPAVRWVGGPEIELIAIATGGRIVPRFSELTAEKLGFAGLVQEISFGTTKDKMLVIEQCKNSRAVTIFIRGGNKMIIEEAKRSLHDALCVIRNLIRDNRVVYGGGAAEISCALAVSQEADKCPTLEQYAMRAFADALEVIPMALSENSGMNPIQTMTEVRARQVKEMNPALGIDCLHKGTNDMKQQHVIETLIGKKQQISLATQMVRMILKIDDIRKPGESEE

Compound | target | test | system | conditions | how to read | measurement | result
CNC(=O)c1cnc(Nc2ccncc2)nc1-c1ccc(C)cc1 | human kinase panel | binding, KINOMEscan | – | 10000 nM, %Ctrl below 1 | – | number of kinases hit | 0
O=C(NC(c1ccccn1)c1ccccn1)c1cc(-c2ccccc2)n(-c2ccccc2)n1 | Genome polyprotein, NS2B-NS3 protease (dengue virus type 2, UniProt P29990) | enzyme activity, fluorogenic AMC substrate | – | 50 µM | – | inhibition | 35%
CC(=O)N[C@@H](CC(=O)O)C(=O)N[C@@H](CCCC(=O)O)C(=O)N1[C@H](C(=O)N[C@@H](CC(=O)O)C(=O)COC(=O)c2c(C)cccc2C)C[C@@H]2CCCC[C@@H]21 | CASP7 | enzyme activity, inhibitor | – | – | – | kinact/KI | 320000 M⁻¹ s⁻¹
CCCCCCCO[C@H]1CO[C@H](CO)[C@@H](O)[C@H](O)[C@@H]1O | Type 1 fimbrin D-mannose specific adhesin, lectin domain (fimH, Escherichia coli K-12, UniProt P08191) | isothermal titration calorimetry | – | concentration not given, 37 °C | – | enthalpy change (ΔH obs) | -59.9 kJ/mol
CC[C@H](C)[C@H](NC(=O)[C@H](CO)NC(=O)[C@H](CO)NC(=O)[C@H](CCC(=O)O)NC(=O)[C@H](CCC(=O)O)NC(=O)[C@H](CCCCN)NC(=O)[C@H](CO)NC(=O)[C@@H](NC(=O)[C@H](CO)NC(=O)[C@H](CC(C)C)NC(=O)[C@H](Cc1ccccc1)NC(=O)[C@H](CCCNC(=N)N)NC(=O)[C@H](C)NC(=O)[C@H](Cc1ccccc1)NC(=O)[C@H](Cc1ccccc1)NC(=O)[C@@H]1CCCN1C(=O)[C@H](CC(C)C)NC(=O)[C@H](C)NC(=O)[C@H](CCCCN)NC(=O)CNC(=O)[C@H](CCC(N)=O)NC(=O)[C@H](CCC(N)=O)NC(=O)[C@H](CC(=O)O)NC(=O)[C@H](CC(N)=O)NC(=O)[C@@H]1CCCN1C(=O)[C@H](Cc1ccc(O)cc1)NC(=O)[C@H](C)NC(=O)[C@@H](N)CCSC)C(C)C)C(=O)N[C@@H](CCCCN)C(=O)N[C@@H](CO)C(=O)N1CCC[C@H]1C(=O)N[C@@H](CO)C(=O)N1CCC[C@H]1C(=O)N[C@@H](CC(=O)O)C(=O)N[C@@H](Cc1c[nH]cn1)C(=O)N[C@@H](CCC(=O)O)C(=O)N[C@H](C(=O)N[C@@H](CO)C(=O)N[C@@H]1C(=O)N[C@@H](CCCNC(=N)N)C(=O)N[C@@H](CCCCN)C(=O)N[C@@H](Cc2ccc(O)cc2)C(=O)N2CCC[C@H]2C(=O)N[C@H]2COC(=O)CC[C@@H](C(=O)N[C@@H](CCC(=O)O)C(=O)N[C@@H](Cc3c[nH]c4ccccc34)C(=O)O)NC(=O)[C@H](Cc3c[nH]c4ccccc34)NC(=O)[C@H](CC(=O)O[C@@H]1C)NC2=O)[C@@H](C)CC | uncharacterized protein (Microcystis aeruginosa MRC, UniProt B2G3C9) | isothermal titration calorimetry | – | concentration not given, pH 8.0, 25 °C | – | binding stoichiometry | 1.05 ± 0.09
C/C1=C\CC/C(C)=C/CC(C)(C)/C=C/C1 | TRPV4 (Homo sapiens, UniProt Q9HBA0) | inhibitor, outside-out patch clamp | – | 100 µM, 5 min, added: GSK1016790A 1 µM | – | remaining current | 4 ± 3%
Cc1cnc2nc1Nc1cccc(c1)COC/C=C/COCc1cc(ccc1OCCN1CCOCC1)N2 | Tyrosine-protein kinase ABL1, non-phosphorylated (ABL1, Homo sapiens, UniProt P00519) | binding | – | 0.1 µM | – | remaining binding | 58%
COc1ccc2c(c[n+](C)c3c4cc5c(cc4ccc23)OCO5)c1OC | T1, riboswitch RNA yjdF aptamer, L3 replaced by GAAA (Bacillus subtilis) | fluorescence titration | – | read off a plot | – | Kd | < 0.1 nM
CC(=O)N1C[C@H](O)C[C@H]1C(=O)N[C@H](C(=O)N[C@@H](CO)C(=O)N[C@@H](CC(=O)O)C(=O)COC(=O)c1c(C)cccc1C)C(C)(C)C | CASP7 | enzyme activity, inhibitor | – | – | – | kinact/KI | 4100 M⁻¹ s⁻¹
O=C1c2sc(-c3ccc(N4CCC(F)C4)nc3F)nc2CCN1c1cccnc1 (centres unmarked) | TAR DNA-binding protein 43, aggregated (TARDBP, Homo sapiens, UniProt Q13148) | radioligand binding | control brain sarkosyl-insoluble extract | 4.94 nM | – | specific binding | 3 pM
COC(=O)Cc1cc2c(cc1C(=O)c1ccc(Cl)cc1Cl)OCO2 | Gria2 (Rattus norvegicus, UniProt P19491) | glutamate-evoked current, whole-cell patch clamp | HEK-293T | concentration not given, weighted tau, 1 ms pulse, added: glutamate | – | deactivation time constant | 3.6 ± 0.1 ms
N#CN1CC[C@H](C(=O)Nc2nc3c(s2)CN(C(=O)Cn2cc(CNC(=O)CCCC[C@@H]4SC[C@@H]5NC(=O)N[C@@H]54)nn2)CC3)C1 | Omega-amidase NIT2 (NIT2, Homo sapiens, UniProt Q9NQR4) | probe binding, affinity probe, neutravidin pull-down LC-MS/MS | HEK293T, cell lysate | 5 µM, 1 h, single replicate, unit not given | higher = more pulled down | iBAQ abundance | 2.29e+08 and 2.27e+08 and 5.39e+08
CCCCCC=CC=C1C(=O)C=CC1CC=CCCCC(=O)O (centres unmarked) | CCT5 (Homo sapiens, UniProt P48643) | competitive isoTOP-ABPP | Ramos soluble proteome | 100 µM, added: iodoacetamide probe | reference: DMSO over compound-treated, higher = stronger cysteine blockade | isoTOP-ABPP competition ratio | 1.9
C/C(=C/CC[C@@H](C)[C@H]1CC[C@@]2(C)C3=C([C@@H](O[C@@H]4O[C@H](CO)[C@@H](O)[C@H](O)[C@H]4O)C[C@]12C)[C@@]1(C)CCC(=O)C(C)(C)[C@@H]1CC3)C(=O)O | TAS2R4 (Homo sapiens, UniProt Q9NYW5) | agonist, calcium mobilisation | HEK cells with Galpha16gust44 | pH 7.4 | – | threshold concentration | 1 µM

Some of these lines once more:
Compound | target | test | system | conditions | how to read | measurement | result
O=C(NC(c1ccccn1)c1ccccn1)c1cc(-c2ccccc2)n(-c2ccccc2)n1 | Genome polyprotein, NS2B-NS3 protease (dengue virus type 2, UniProt P29990) | enzyme activity, fluorogenic AMC substrate | – | 50 µM | – | inhibition | 35%
Cc1cnc2nc1Nc1cccc(c1)COC/C=C/COCc1cc(ccc1OCCN1CCOCC1)N2 | Tyrosine-protein kinase ABL1, non-phosphorylated (ABL1, Homo sapiens, UniProt P00519) | binding | – | 0.1 µM | – | remaining binding | 58%
